Measurements pooled from the literature.
± marks the error that the study gave.
GBA2: Beta-glucosidase (GBA2, Homo sapiens, UniProt Q9HCG7)

The chains behind the UniProt entries cited, without tags or fusion partners. Residues count along the entry.
UniProt Q9HCG7, whole entry: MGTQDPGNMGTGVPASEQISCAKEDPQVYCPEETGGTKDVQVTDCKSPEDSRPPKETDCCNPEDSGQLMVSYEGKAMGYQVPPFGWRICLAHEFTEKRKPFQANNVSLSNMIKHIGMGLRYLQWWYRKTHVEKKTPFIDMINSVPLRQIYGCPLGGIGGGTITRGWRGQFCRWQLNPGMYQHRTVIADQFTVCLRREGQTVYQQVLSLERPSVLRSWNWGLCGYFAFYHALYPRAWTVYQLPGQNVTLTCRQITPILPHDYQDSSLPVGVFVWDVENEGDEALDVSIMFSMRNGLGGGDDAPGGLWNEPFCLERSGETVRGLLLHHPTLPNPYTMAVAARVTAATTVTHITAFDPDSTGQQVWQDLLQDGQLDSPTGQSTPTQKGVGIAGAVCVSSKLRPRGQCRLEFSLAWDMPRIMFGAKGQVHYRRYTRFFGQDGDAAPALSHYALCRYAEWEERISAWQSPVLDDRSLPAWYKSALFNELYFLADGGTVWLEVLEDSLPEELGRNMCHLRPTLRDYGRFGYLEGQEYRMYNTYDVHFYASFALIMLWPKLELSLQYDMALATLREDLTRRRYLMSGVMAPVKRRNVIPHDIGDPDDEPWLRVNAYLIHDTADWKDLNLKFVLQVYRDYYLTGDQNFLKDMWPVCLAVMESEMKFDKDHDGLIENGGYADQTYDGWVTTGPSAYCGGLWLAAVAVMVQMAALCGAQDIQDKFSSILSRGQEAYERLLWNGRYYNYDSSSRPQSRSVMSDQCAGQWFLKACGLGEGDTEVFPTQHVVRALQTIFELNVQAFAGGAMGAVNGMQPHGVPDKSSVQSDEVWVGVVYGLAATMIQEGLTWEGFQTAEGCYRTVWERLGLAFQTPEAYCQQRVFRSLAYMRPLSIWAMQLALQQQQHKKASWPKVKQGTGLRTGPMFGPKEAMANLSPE
UniProt Q6P5Z2, whole entry: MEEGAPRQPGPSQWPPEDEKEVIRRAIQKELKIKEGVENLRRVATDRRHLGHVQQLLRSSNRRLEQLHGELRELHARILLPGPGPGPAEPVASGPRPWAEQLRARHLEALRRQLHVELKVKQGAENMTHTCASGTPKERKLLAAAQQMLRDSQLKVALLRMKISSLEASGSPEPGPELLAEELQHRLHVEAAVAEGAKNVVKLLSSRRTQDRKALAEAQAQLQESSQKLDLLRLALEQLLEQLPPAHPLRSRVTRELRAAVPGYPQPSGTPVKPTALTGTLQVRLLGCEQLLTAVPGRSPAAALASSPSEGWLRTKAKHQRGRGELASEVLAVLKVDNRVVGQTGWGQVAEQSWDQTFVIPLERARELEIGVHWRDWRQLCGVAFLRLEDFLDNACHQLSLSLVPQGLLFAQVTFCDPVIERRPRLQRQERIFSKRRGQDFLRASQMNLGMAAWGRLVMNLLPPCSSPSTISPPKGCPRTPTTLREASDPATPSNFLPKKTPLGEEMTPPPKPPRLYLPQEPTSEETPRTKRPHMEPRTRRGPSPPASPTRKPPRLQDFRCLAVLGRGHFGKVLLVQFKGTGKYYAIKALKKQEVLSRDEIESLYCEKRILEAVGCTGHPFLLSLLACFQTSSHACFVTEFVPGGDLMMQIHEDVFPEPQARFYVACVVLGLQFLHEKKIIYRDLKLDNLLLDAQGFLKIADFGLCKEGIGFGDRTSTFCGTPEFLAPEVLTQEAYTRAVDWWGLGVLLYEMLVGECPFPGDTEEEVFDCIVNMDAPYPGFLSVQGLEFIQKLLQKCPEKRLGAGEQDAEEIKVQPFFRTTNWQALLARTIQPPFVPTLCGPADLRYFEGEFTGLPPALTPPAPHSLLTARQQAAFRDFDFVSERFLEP
UniProt P34969, 1-445 isoform 2: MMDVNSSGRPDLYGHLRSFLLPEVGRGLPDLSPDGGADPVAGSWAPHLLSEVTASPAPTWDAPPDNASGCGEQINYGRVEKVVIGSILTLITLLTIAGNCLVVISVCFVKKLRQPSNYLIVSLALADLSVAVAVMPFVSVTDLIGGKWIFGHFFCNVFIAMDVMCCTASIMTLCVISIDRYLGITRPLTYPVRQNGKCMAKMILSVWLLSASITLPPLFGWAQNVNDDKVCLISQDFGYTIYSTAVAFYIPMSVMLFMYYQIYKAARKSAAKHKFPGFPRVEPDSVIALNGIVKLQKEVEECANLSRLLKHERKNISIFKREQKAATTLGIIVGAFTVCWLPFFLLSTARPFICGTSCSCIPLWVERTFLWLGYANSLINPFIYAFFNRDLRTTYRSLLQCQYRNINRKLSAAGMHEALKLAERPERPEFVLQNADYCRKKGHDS
UniProt O15379, whole entry: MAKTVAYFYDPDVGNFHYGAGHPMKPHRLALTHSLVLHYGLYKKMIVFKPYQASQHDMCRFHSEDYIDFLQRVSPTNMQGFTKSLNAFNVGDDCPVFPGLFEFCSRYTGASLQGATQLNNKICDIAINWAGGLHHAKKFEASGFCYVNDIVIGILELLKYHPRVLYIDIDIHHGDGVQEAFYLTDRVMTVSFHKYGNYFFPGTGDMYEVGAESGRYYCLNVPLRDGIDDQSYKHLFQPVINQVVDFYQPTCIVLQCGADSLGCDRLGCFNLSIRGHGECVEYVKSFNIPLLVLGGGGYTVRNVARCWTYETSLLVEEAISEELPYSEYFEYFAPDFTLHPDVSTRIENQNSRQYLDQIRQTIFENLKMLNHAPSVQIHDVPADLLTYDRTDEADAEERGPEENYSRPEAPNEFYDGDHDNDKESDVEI
UniProt Q923Y9, whole entry: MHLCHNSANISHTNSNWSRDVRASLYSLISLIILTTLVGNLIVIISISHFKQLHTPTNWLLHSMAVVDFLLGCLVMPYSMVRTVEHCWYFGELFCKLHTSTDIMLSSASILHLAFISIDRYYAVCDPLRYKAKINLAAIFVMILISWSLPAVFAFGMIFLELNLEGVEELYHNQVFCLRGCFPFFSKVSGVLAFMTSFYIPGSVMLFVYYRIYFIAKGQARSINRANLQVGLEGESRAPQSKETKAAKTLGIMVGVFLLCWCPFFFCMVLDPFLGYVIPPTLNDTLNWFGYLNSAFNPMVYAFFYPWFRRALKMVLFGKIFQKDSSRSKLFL
UniProt P17655, whole entry: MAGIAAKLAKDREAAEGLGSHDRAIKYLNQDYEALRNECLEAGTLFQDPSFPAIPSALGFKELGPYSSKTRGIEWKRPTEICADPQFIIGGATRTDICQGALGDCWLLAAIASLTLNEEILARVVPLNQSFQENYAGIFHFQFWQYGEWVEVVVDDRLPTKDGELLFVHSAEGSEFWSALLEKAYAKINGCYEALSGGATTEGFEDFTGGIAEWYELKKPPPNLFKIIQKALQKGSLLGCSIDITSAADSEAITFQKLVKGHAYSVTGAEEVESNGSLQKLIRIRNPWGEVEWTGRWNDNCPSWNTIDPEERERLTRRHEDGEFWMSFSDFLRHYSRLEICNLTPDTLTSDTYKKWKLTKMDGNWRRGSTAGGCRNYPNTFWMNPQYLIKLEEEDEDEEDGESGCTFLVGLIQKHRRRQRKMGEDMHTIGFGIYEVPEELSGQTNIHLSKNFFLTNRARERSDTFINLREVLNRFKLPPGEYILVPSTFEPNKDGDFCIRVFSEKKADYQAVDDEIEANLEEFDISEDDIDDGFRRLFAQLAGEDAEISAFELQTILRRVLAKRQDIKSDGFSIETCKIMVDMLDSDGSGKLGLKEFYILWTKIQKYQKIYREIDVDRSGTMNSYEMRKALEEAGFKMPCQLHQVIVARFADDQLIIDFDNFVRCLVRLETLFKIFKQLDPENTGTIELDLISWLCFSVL
UniProt Q9Y251, whole entry, looked up: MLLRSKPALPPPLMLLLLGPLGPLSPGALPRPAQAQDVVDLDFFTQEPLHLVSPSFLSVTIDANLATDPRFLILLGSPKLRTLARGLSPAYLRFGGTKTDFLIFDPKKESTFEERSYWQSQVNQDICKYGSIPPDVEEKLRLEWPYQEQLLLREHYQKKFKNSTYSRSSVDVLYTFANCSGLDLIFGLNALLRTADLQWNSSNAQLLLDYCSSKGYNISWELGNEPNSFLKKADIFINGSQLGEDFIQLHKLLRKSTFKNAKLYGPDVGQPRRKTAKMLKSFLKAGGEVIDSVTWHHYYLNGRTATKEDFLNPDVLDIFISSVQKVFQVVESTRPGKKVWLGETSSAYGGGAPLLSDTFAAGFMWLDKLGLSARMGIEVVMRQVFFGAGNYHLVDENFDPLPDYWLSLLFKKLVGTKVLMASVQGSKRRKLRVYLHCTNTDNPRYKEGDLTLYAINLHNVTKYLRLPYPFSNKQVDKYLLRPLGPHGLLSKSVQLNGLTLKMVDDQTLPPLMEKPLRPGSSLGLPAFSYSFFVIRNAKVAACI
UniProt Q01727, whole entry: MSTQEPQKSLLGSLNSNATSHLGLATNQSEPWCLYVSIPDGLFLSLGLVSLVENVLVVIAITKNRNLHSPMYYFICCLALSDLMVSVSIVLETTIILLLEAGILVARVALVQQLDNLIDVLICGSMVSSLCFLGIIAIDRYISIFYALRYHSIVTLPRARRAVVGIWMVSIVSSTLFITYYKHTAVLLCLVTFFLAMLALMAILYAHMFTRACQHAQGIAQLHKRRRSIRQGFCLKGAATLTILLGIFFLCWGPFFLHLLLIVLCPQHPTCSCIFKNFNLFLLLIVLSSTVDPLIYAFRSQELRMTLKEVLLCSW
UniProt P41148, 22-804 limits assumed: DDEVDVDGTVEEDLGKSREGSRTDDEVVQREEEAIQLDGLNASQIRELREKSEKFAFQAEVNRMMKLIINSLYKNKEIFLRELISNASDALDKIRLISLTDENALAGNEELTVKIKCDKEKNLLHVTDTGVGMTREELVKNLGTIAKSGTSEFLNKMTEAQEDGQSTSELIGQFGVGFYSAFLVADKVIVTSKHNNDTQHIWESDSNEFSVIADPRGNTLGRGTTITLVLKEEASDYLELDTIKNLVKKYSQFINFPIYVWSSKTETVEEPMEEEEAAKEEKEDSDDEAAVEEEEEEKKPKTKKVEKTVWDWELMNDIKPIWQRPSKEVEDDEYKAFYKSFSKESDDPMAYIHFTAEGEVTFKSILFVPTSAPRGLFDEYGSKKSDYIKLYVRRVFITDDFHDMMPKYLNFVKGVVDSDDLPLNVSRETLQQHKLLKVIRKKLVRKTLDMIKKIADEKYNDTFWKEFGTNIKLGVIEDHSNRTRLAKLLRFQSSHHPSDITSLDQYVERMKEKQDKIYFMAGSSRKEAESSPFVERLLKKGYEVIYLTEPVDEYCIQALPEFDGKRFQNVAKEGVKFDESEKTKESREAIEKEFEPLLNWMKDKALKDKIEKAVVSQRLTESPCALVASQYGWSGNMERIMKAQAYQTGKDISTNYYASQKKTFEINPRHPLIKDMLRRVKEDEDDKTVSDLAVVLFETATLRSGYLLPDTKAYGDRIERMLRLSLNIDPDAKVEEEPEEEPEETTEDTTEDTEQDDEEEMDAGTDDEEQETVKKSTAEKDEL
UniProt Q9Y618, 395-489 partner limits assumed: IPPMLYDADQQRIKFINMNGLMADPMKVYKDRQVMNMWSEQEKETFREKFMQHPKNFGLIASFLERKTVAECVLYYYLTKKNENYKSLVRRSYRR

| SMILES | target | assay | setting | scale | selectivity ratio |
| --- | --- | --- | --- | --- | --- |
| COc1cc(Nc2ccnc3ccc(Br)cc23)cc(OC)c1OC | Serine/threonine-protein kinase N3 (PKN3, Homo sapiens, UniProt Q6P5Z2) | binding | – | relative to: GAK Ki over PKN3 IC50 | 3 fold |
| C/C=C/Cn1c(Cc2cc(OC)c(OC)c(OC)c2)nc2c(N)ncnc21 | human Hsp90α and Hsp90β NTD | binding, isothermal titration calorimetry | Hsp90α residues 1-236 | relative to: Kd Hsp90β over Hsp90α | 2.1 ± 0.3 fold |
| NC(N)=NC(=O)N1CCc2c(F)ccc(-c3c(F)cc(F)cc3F)c2C1 | 5-hydroxytryptamine receptor 7 (HTR7, Homo sapiens, UniProt P34969) | radioligand binding | – | relative to: Ki HTR7 over Ki 5-HT5A receptor | 2.6 fold |
| OC[C@H]1[C@@H](O)[C@H](O)[C@@H](O)CN1CCCCCOCc1ccc(Br)cc1 | GBA2 | – | – | relative to: GCS IC50 over GBA2 IC50 | 84 |
| O=C(CCCCCCN(Cc1ccc2ccccc2c1)Cc1ccc2ccccc2c1)NO | Histone deacetylase 3 (HDAC3, Homo sapiens, UniProt O15379) | – | – | relative to: IC50 HDAC3 over HDAC1 | 0.86 |
| NCCc1ccc(Oc2ccccc2)cc1 | Trace amine-associated receptor 1 (Rattus norvegicus, UniProt Q923Y9) | cAMP production, agonist | – | relative to: rat over mouse potency | 7 to 10 fold |
| CCC(NC(=O)C(CC(C)C)NC(=O)Cc1ccncc1)C(=O)C(=O)NCc1cc(OC)cc(OC)c1 (centres unmarked) | Calpain-2 catalytic subunit (Homo sapiens, UniProt P17655) | enzyme activity, inhibitor, Suc-Leu-Tyr-AMC hydrolysis | – | relative to: Ki calpain-1 over calpain-2 | 1.5 |
| C[C@@H](CC(=O)NCc1cccc2ccccc12)NC(=O)[C@H](CC(=O)NC(C)(C)C)NC(=O)OC(C)(C)C | Proteasome component C5/PSMB8 (Homo sapiens, UniProt P20618+P28062) | enzyme activity | – | relative to: IC50 PSMB5 over IC50 PSMB8 | > 600 |
| OCC1C(O)C(O)C(O)CN1CCCC(F)(F)COCc1ccc(-c2ccccc2)cc1 (centres unmarked) | GBA2 | – | – | relative to: GBA1 IC50 over GBA2 IC50 | 6250 |
| O=C([C@H]1O[C@H](O[C@H]2[C@H](O[C@@H]3O[C@H](C(=O)N4CCCC4)[C@@H](O[C@H]4O[C@@H](CNS(=O)(=O)O)[C@@H](OCc5ccc6ccccc6c5)[C@H](OCc5ccc6ccccc6c5)[C@H]4NS(=O)(=O)O)[C@H]3OCc3ccc4ccccc4c3)[C@@H](OCc3ccc4ccccc4c3)[C@H](NS(=O)(=O)O)C[C@@H]2NS(=O)(=O)O)[C@H](NS(=O)(=O)O)[C@@H](OCc2ccc3ccccc3c2)[C@@H]1OCc1ccc2ccccc2c1)N1CCCC1 | Heparanase (HPSE, Homo sapiens, UniProt Q9Y251) | TR-FRET | – | relative to: PF4 IC50 over heparanase IC50 | > 100 fold |
| OC[C@H]1[C@@H](O)[C@H](O)[C@@H](O)CN1CCCCCOCCc1ccsc1 | GBA2 | – | – | relative to: GCS IC50 over GBA2 IC50 | 120 |
| NCCCCNC(=O)[C@H](Cc1ccccc1)NC(=O)N1CCc2ccccc2C1 | Melanocyte-stimulating hormone receptor (Mc1r, Mus musculus, UniProt Q01727) | agonist, β-galactosidase reporter | – | relative to: Mc1r over mouse MC4R | 5 fold |
| OCC1C(O)C(O)C(O)CN1CC(F)(F)CCCOCc1ccc(-c2ccccc2)cc1 (centres unmarked) | GBA2 | – | – | relative to: GCS IC50 over GBA2 IC50 | 10 |
| COC(=O)c1c(O)cc(O)c(Cl)c1CCc1ccccc1Cc1ccccc1Cl | Endoplasmin (HSP90B1, Canis lupus familiaris, UniProt P41148) | fluorescence polarization | added: FITC-geldanamycin tracer | relative to: Grp94 over Hsp90α | > 18 fold |

Some of these lines once more:
| SMILES | target | assay | setting | scale | selectivity ratio |
| --- | --- | --- | --- | --- | --- |
| C/C=C/Cn1c(Cc2cc(OC)c(OC)c(OC)c2)nc2c(N)ncnc21 | human Hsp90α and Hsp90β NTD | binding, isothermal titration calorimetry | Hsp90α residues 1-236 | relative to: Kd Hsp90β over Hsp90α | 2.1 ± 0.3 fold |
